Measurements pooled from the literature.
Each numbered part is a random draw from the data of one study; scales do not carry over between parts.
Chain of UniProt Q04912 (whole entry, looked up): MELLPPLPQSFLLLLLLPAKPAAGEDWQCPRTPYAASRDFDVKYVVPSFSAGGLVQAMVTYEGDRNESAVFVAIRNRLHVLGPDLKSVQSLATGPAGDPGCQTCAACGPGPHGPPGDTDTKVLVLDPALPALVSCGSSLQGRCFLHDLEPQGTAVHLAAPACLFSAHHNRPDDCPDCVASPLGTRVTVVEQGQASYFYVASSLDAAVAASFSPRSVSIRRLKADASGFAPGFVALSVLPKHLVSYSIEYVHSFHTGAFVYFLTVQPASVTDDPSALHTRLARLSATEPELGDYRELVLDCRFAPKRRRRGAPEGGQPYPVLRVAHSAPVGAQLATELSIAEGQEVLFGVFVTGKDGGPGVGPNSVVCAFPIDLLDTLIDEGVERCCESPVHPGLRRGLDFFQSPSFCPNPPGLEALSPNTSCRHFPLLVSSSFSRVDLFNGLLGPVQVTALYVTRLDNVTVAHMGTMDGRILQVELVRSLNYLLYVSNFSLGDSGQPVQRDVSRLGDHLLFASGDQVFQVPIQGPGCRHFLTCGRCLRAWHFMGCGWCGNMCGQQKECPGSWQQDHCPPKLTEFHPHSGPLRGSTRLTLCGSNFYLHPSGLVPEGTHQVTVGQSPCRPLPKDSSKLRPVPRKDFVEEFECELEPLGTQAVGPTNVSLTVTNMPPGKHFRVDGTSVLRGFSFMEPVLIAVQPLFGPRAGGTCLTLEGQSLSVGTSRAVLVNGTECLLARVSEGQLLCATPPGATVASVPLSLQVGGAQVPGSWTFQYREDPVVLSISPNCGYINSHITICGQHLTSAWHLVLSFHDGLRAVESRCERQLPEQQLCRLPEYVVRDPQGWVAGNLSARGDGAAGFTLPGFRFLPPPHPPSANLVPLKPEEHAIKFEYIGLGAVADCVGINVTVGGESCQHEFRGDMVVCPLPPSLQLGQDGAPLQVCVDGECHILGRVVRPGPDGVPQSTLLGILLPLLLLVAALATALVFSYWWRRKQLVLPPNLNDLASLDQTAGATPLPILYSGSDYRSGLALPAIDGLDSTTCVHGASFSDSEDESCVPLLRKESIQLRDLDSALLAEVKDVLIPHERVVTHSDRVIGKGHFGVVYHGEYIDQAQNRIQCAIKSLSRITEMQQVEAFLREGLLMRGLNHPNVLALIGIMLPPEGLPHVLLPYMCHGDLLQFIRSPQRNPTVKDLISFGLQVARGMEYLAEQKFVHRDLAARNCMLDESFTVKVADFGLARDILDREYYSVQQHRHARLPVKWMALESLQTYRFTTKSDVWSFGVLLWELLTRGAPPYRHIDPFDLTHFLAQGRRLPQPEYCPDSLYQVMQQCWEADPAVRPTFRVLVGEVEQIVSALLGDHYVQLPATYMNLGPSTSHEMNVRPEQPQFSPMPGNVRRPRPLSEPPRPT
Chain of UniProt P30291 (whole entry, looked up): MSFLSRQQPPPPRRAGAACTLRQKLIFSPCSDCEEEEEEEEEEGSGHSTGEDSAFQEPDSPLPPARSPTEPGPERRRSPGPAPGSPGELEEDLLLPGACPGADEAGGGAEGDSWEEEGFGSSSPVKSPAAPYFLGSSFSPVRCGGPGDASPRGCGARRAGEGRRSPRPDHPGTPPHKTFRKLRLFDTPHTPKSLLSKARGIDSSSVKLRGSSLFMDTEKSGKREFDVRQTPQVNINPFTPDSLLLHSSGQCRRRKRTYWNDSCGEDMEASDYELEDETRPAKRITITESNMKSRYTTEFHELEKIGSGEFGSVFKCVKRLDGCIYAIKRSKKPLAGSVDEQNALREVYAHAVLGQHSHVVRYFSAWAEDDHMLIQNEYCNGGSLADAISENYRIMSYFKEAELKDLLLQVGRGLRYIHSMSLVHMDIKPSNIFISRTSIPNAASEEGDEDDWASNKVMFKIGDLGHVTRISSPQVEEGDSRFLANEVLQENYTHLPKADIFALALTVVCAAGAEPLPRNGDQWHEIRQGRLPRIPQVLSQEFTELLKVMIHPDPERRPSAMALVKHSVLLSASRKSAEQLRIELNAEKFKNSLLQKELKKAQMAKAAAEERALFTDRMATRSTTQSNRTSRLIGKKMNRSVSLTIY
Chain of UniProt Q9UL54 (whole entry, looked up): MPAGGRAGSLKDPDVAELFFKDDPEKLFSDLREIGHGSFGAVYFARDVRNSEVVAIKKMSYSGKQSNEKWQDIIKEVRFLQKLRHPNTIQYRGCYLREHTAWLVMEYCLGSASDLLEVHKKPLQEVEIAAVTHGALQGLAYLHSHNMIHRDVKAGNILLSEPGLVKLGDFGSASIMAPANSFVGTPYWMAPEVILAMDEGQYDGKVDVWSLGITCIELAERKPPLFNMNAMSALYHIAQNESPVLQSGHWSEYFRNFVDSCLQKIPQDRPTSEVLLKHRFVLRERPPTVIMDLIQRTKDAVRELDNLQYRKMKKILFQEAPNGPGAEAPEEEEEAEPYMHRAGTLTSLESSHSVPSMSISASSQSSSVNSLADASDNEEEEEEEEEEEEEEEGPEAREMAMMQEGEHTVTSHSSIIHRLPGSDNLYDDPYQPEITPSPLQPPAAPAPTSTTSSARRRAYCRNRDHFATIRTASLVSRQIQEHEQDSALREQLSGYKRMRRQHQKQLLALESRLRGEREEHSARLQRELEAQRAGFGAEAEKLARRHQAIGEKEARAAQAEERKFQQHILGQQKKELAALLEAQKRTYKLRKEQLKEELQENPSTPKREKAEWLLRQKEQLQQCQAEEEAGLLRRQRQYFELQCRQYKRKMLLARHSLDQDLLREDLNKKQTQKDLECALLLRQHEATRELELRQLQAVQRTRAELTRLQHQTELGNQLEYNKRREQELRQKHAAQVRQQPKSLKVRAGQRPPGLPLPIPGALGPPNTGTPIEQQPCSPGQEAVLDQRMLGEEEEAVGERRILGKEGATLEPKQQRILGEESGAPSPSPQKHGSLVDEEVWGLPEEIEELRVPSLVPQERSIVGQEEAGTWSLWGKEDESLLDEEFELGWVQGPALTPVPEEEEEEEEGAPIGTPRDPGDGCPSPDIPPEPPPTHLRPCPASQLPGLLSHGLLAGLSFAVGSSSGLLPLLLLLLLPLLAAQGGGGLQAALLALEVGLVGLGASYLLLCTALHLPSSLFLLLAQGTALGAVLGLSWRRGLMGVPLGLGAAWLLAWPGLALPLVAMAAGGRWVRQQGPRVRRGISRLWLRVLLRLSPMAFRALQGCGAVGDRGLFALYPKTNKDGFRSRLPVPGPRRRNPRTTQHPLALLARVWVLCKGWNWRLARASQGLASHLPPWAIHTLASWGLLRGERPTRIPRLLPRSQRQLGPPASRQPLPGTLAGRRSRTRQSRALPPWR
Chain of UniProt P29320 (whole entry, looked up): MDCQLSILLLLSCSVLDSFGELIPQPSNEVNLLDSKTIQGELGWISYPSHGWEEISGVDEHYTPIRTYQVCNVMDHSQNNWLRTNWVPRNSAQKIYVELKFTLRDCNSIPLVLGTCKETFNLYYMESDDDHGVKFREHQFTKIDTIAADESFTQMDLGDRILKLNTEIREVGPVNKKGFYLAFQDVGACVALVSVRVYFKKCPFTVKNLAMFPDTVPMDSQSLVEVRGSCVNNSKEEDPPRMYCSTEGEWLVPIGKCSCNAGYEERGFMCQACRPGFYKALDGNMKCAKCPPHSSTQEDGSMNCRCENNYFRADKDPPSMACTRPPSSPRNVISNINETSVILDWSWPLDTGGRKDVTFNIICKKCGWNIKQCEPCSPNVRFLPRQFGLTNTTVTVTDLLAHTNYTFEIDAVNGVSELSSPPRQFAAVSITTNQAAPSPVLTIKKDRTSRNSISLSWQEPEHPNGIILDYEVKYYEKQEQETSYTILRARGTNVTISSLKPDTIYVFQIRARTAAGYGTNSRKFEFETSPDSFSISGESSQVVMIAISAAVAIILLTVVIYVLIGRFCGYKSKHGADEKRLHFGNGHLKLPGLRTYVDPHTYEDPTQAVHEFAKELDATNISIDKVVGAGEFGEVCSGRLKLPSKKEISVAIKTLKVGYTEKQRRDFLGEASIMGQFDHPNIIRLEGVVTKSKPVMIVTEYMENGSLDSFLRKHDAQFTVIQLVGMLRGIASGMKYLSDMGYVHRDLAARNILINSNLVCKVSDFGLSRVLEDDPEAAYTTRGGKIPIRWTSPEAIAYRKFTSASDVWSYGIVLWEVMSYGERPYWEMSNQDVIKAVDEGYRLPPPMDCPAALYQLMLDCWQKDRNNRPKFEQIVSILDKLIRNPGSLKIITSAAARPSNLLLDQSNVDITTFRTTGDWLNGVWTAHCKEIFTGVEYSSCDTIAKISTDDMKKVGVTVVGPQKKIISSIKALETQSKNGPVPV
Chain of UniProt Q9HC98 (whole entry, looked up): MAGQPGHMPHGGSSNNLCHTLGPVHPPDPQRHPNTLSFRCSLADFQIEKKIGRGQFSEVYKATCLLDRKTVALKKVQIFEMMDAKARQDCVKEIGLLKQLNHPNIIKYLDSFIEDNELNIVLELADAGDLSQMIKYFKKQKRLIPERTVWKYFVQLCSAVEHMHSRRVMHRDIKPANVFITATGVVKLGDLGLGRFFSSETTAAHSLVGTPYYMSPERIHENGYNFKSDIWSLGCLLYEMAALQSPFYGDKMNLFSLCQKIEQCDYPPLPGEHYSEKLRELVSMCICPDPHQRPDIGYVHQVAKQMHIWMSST

Set 1 — organism: Sarcocystis neurona; read-out: parasite growth; concentration: concentration not given; measurement: inhibition
COc1ccccc1N1CCN(CCCNc2cc(=O)n(C)c(=O)n2C)CC1.Cl: -15.8%
O=C(O)c1cc2ccccc2c(Cc2c(O)c(C(=O)O)cc3ccccc23)c1O.OCCOCCN1CCN(C(c2ccccc2)c2ccc(Cl)cc2)CC1: -13.6%
C[C@]12CCC(=O)C=C1CC[C@@H]1[C@@H]2[C@@H](O)C[C@@]2(C)[C@H]1CC[C@]2(O)C(=O)COC(=O)CCC(=O)O: -2.9%
CC(C)NCC(O)c1ccc(O)c(O)c1.Cl (stereo not drawn): -2.8%
Cc1sc(N)c(C(=O)c2cccc(C(F)(F)F)c2)c1C: -18%
COc1nc(C)nc(Cl)c1NC1=NCCN1.Cl: -16.2%
CN1[C@@H](CC(=O)c2ccccc2)CCC[C@H]1C[C@H](O)c1ccccc1.Cl: -12.9%

Set 2 — SMILES: O=C1Cc2c([nH]c3ccc(Br)cc23)-c2ccccc2N1; read-out: enzyme activity; mode: inhibitor; concentration: 0.5 µM; relative to: control; measurement: remaining activity
Dual specificity mitogen-activated protein kinase kinase 2 (MAP2K2, Homo sapiens, UniProt P36507): 116%
Angiopoietin-1 receptor (TEK, Homo sapiens, UniProt Q02763): 106%
Mitogen-activated protein kinase kinase kinase 14 (MAP3K14, Homo sapiens, UniProt Q99558): 106%
Ephrin type-A receptor 3 (EPHA3, Homo sapiens, UniProt P29320): 96%
Serine/threonine-protein kinase ULK3 (ULK3, Homo sapiens, UniProt Q6PHR2): 83.2%
Serine/threonine-protein kinase Nek6 (NEK6, Homo sapiens, UniProt Q9HC98): 100%
Fibroblast growth factor receptor 3 (FGFR3, Homo sapiens, UniProt P22607): 101%
Serine/threonine-protein kinase TBK1 (TBK1, Homo sapiens, UniProt Q9UHD2): 93%
Serine/threonine-protein kinase TAO2 (TAOK2, Homo sapiens, UniProt Q9UL54): 94%
Macrophage-stimulating protein receptor (MST1R, Homo sapiens, UniProt Q04912): 93.6%
Serine/threonine-protein kinase ULK2 (ULK2, Homo sapiens, UniProt Q8IYT8): 90.1%
Tyrosine-protein kinase Mer (MERTK, Homo sapiens, UniProt Q12866): 89.5%
Tyrosine-protein kinase JAK3 (JAK3, Homo sapiens, UniProt P52333): 103%
Wee1-like protein kinase (WEE1, Homo sapiens, UniProt P30291): 87.7%

Set 3 — read-out: binding; technique: radioligand binding; concentration: 10 µM; measurement: inhibition
Target: Alpha-2B adrenergic receptor (ADRA2B, Homo sapiens, UniProt P18089)
Chain of UniProt P18089 (whole entry, looked up): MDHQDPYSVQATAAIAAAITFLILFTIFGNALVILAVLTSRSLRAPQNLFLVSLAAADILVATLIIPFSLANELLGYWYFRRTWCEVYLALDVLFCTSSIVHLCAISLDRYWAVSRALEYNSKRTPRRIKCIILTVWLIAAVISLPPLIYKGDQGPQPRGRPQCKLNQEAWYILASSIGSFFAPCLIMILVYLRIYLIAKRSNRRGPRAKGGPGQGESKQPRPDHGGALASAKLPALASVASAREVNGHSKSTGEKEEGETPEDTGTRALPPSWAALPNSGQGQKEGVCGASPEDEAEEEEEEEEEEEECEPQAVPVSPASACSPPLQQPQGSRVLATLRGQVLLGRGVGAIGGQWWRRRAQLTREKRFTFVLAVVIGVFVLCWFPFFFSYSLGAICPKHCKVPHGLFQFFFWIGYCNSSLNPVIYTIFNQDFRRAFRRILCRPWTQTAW
CN1C(=O)[C@@H](N2CCc3cn(Cc4ccccc4)nc3C2=O)COc2ccccc21: 43.3%
Cc1cc(C)c(-n2ccn3nc(-c4cccnc4)cc23)cc1NC(=O)c1cc(C#N)cc(S(F)(F)(F)(F)F)c1: 18.1%
CC1=C(C#N)C(c2ccc3c(c2)c(NC(=O)c2ccccc2C)nn3C)C(C#N)=C(C)N1: 20.7%
CNC(=O)Nc1ccc2c(c1)[C@]1(CC2)OC(=O)N(CC(=O)N(Cc2ccc(F)cc2)[C@@H](C)C(F)(F)F)C1=O: 10.2%
O=C(NC[C@@H]1[C@H]2CN(C(=O)OCc3cc(C(F)(F)F)cc(C(F)(F)F)c3)C[C@@H]12)c1ccc2[nH]nnc2c1: 25.2%

Set 4 — species: human; matrix: microsomes or S9; concentration: 2 µM; time: 0.5 h; measurement: remaining compound
CCOc1cc(=O)n2c(c1C(=O)N1CCN(C3CCCCC3)CC1)CCCCC2: 71.6%
CC(C)(C)OC(=O)COc1ccc(-c2cc3ccccc3[nH]c2=O)cc1: 6.47%
CC(C)(C)NS(=O)(=O)c1ccc(CCC(=O)N2CCCCCC2)cc1: 62.7%
Nc1nc(N(Cc2ccco2)Cc2ccco2)c2[nH]cnc2n1: > 100%
Cn1cc(NC(=O)N2CCCC(S(=O)(=O)N3CCc4ccccc43)C2)cn1 (stereo not drawn): 91.4%
CCOC(=O)CNC(=O)N1Cc2c(sc3c2CCCC3)-n2cccc2C1C(C)C (stereo not drawn): < 1%
COc1cc(=O)n2c(c1C(=O)Nc1cccc3c1CCCC3)CCCC2: 21.1%

Repeated from above (set 2):
Fibroblast growth factor receptor 3 (FGFR3, Homo sapiens, UniProt P22607): 101%
Serine/threonine-protein kinase TBK1 (TBK1, Homo sapiens, UniProt Q9UHD2): 93%
